{"data": "Measured values pooled from the literature", "Nuclear receptor subfamily 2 group C member 2 ligand-binding domain": "Nuclear receptor subfamily 2 group C member 2, ligand-binding domain (Homo sapiens, UniProt P49116)", "note": "Compare with care: the assays were run in different laboratories. Values joined by “and” are separate records of one study, mostly repeats; a detail may differ. Numbers after ± are the reported error."}
{"Compound": "Nc1ncnc2c1ncn2[C@@H]1O[C@H](COP(=O)(O)CP(=O)(O)OP(=O)(O)O)[C@@H](O)[C@H]1O", "target": "P2X purinoceptor 1 (P2RX1, Homo sapiens, UniProt P51575, K136W)", "test": "calcium influx", "setting": "10 µM", "scale": "reference: ionomycin response", "endpoint": "calcium influx", "value": "100% and 98.4% and 95.1%"}
{"Compound": "CC[C@@H]1[C@H](F)C(=O)N[C@@H]1COc1nccc2cc(C(N)=O)c(OC)cc12", "target": "MARK2 (Homo sapiens, UniProt Q7KZI7)", "test": "ATP-site probe binding, ActivX profiling", "system": "THP-1 cell lysate", "setting": "0.2 mM, Lys2 site", "endpoint": "inhibition", "value": "4.2%"}
{"Compound": "CCS(=O)(=O)c1nc(C2CC2)cc(C(F)(F)F)n1", "target": "Exportin-1 (XPO1, Homo sapiens, UniProt O14980)", "test": "nuclear export, high content imaging", "system": "HeLa Kyoto reporter", "setting": "1.58 µM, 2 h", "endpoint": "cells with nuclear reporter", "value": "2.81% and 3.99% and 7.31%"}
{"Compound": "COc1cc(C(=O)NS(=O)(=O)c2ccccc2C)ccc1Cc1cn(C)c2ccc(NC(=O)OC3CCCC3)cc12", "target": "Nuclear receptor subfamily 2 group C member 2 ligand-binding domain", "test": "SPR imaging", "setting": "600 nM", "endpoint": "koff", "value": "1.63e-06 s⁻¹"}
{"Compound": "O=C(COP(=O)(O)O)[C@@H](O)[C@H](O)[C@H](O)COP(=O)(O)O", "target": "Small ribosomal subunit protein eS7 (Homo sapiens, UniProt P62081)", "test": "thermal proteome profiling, measured: RPS7", "system": "HepG2 cell lysate", "setting": "concentration not given, 57 over 37 °C, mean", "scale": "reference: compound over control", "endpoint": "thermal stability ratio", "value": 0.624}
{"Compound": "O=C1c2ccccc2CCCN1CCCCN1CCN(c2ccccn2)CC1", "target": "HTR4 (Homo sapiens, UniProt Q13639)", "test": "radioligand binding", "setting": "concentration not given", "endpoint": "inhibition", "value": "13.2%"}
{"Compound": "O=C(O)C1CCCNC1 (stereo not drawn)", "target": "SLC6A6 (Homo sapiens, UniProt P31641, Y138A)", "test": "binding, microscale thermophoresis", "setting": "40.3 nM, fitted curve", "scale": "higher = more binding", "endpoint": "fraction bound", "value": 0.00199}
{"Compound": "O=C1OC(c2ccccc2)=N/C1=C\\c1ccc(O)cc1", "target": "MAL12 (Saccharomyces cerevisiae S288c, UniProt P53341)", "test": "inhibitor, Lineweaver-Burk", "setting": "3200 ppm, with: pNPG substrate", "endpoint": "Vmax", "value": "0.046 mM/min"}
{"Compound": "CC(C)C[C@@H]1NC(=O)[C@H](C(C)C)NC(=O)CNC(=O)[C@H](CC(N)=O)NC(=O)[C@@H]2CCCN2C(=O)[C@H](Cc2ccc(O)cc2)NC(=O)[C@H](CCCNC(=N)N)NC(=O)[C@H](C)NC(=O)[C@@H](NC(=O)[C@H](CCCCN)NC(=O)[C@@H]2CCCN2C(=O)[C@H](CO)NC(=O)[C@H](C)NC(=O)[C@@H](N)Cc2ccc(O)cc2)CSSC[C@@H](C(=O)N[C@H](C(N)=O)[C@@H](C)O)NC(=O)[C@H](C)NC1=O", "target": "Alpha-2-HS-glycoprotein, asialo (AHSG, Bos taurus, UniProt P12763)", "test": "isothermal titration calorimetry", "setting": "concentration not given, pH 7.0, 25 °C, with: asialofetuin", "endpoint": "binding stoichiometry", "value": 0.127}
{"Compound": "Cc1cccc(N2CC(C(=O)O)CC2=O)c1 (stereo not drawn)", "target": "S-phase kinase-associated protein 1 (SKP1, Homo sapiens, UniProt P63208)", "test": "binding, affinity selection mass spectrometry", "scale": "reference: other proteins in batch", "endpoint": "log fold enrichment", "value": 0.0239}
{"Compound": "Nc1ncnc2c1ncn2[C@@H]1O[C@H](C[C@@H](N)CC[C@H](N)C(=O)O)[C@@H](O)[C@H]1O", "target": "PRMT5/MEP50 complex (Homo sapiens, UniProt O14744+Q9BQA1)", "test": "RIOK1 PBM peptide binding, fluorescence polarization", "setting": "30 µM, with: fluorescent RIOK1 PBM peptide", "endpoint": "PBM peptide binding", "value": "no effect"}
{"Compound": "O=C(C1CCCCC1)N1CC(=O)N2CCc3ccccc3C2C1 (stereo not drawn)", "target": "Nuclear receptor subfamily 2 group C member 2 ligand-binding domain", "test": "SPR imaging", "setting": "600 nM", "endpoint": "koff", "value": "2.3e-05 s⁻¹"}
{"Compound": "CC1=C(/C=C/C(C)=C/C=C/C(C)=C/C=O)C(C)(C)CCC1", "target": "Rhodopsin (RHO, Bos taurus, UniProt P02699, L266T)", "test": "retinal entry, Trp FRET", "system": "lipid bicelles", "setting": "28 °C, L266T mutant", "scale": "reference: wild-type rhodopsin", "endpoint": "relative kon", "value": "1.33 ± 0.22"}
{"Compound": "N#Cc1ccc2[nH]cc(CCCCN3CCN(c4ccc5oc(C(N)=O)cc5c4)CC3)c2c1", "target": "SLC6A4 (Homo sapiens, UniProt P31645)", "test": "serotonin uptake, inhibitor", "system": "COS-7 expressing SLC6A4", "setting": "45 min preincubation, with: [3H]5-HT", "endpoint": "Hill coefficient", "value": "2.48 ± 0.41"}
{"Compound": "Nc1nc2c(ncn2[C@@H]2O[C@H](COP(=O)(O)O)[C@@H](O)[C@H]2O)c(=O)[nH]1", "target": "GUK1 (Homo sapiens, UniProt Q16774)", "test": "enzyme activity, NADH-coupled", "setting": "1000 µM", "endpoint": "reaction rate", "value": "30.8 s⁻¹ and 30 s⁻¹ and 40.6 s⁻¹"}
